Results from different studies.
Every numbered part comes from another study and shows a few of its results, in no order.

Sample 1
Target: RNA binding protein fox-1 homolog 2, RRM domain, GST-SBP tag (RBFOX2, Homo sapiens, UniProt O43251-10, residues 100-194)
Technique: RNA Bind-n-Seq
Molecule type: RNA
Medium: in vitro
Concentration: 365 nM
Notes: natural RNA segment, single round, ends assumed
Baseline: no-protein control
Reading: higher = stronger binding
Construct (chain): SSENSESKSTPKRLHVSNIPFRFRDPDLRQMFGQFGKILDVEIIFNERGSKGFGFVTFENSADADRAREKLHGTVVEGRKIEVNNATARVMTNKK
`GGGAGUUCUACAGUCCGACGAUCAAGAACAUAAGCUUUCUCGUAUAUACCUGUAUGCUACAGUUUUUCACAUGGAAUUCCGUUUUCUGAGGUACAGCACAUUUUAGGUAACAGUAUUUAACUUGAAAUUCAUCUGGAAUUCUCGGGUGCCAA`: “RBNS enrichment (R)” 0.509.
`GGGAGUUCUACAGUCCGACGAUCCCAAUACCCUAGAAGAAAACCCGAGGGACAGCAGAUUCCACAGGACACGAAGGCUGCCCCUGUAAGGUUUCAAUGCAUACAAUAAAAGAGCUUUAUCCCUAACUUCUGUUUGGAAUUCUCGGGUGCCAA` — result for “RBNS enrichment (R)”: 2.61.
`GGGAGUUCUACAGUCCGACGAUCGGGGCAGGAGGAGGGGCUGCUCUCUGAGACAGGGGCGCCCCCGCCUUGACCCCUGGGCACCUCCAUCCCCUCCCACCUGUCCCCAGAUCAGUCUCUGGGAUGGAGGCCAGUGGAAUUCUCGGGUGCCAA` — result for “RBNS enrichment (R)”: 3.81.
`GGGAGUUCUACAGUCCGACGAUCAAUCAAGAGCUGAAGGCCAGUGUUGAGAGACAUGCCUAGUGGCCUUUGCAGAGACGUGGGGAUCAAGCCCAGGAGGGAGGGGAGUGUCGCUCUCCCACGCCUGGACUGAGUGGAAUUCUCGGGUGCCAA`: “RBNS enrichment (R)” 0.289.
`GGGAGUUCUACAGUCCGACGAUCAAAGCAAUUUUUUUCUUUUCGAUUUAAUGAAGUAUUGCUAGCUGAAGCCAGUUUGACAUAGAGAGAUGUCAGAUUGAUUUGAAAGGUGUGCAGCCUGAUUUAAAACCAAAUGGAAUUCUCGGGUGCCAA`: “RBNS enrichment (R)” 0.716.
`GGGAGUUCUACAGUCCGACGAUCGAAGAAGUUGGAGGAUGGUGCUGAAUGCAGUUUUGUUUAUUCCAAGAAAAAAUAUUUAUAAUAAAAUCAUUUGUAGGAAGAUGUUUAAGAAGUUAGGAAAUUCAGUUUGUUGGAAUUCUCGGGUGCCAA`: “RBNS enrichment (R)” 1.21.
Under “RBNS enrichment (R)”, `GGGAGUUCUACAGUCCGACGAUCGUAGAAUAUUGAAUAUUUAAAAGGCACACUACAUCUGAUAGUCAAUGUAAAUAUUUUCUUUCCAAGUUGUAAGUUUUCAUAUCAUGUGUUGUAAAGUUUUCCUAAACGAGUGGAAUUCUCGGGUGCCAA` is recorded as 0.573.
`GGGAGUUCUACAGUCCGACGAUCCUCGUGUGGUUAGAUCCCAGGCUCUCUGCUCACCUGUAGAUCGCAGAUCCUGCUGGAGGGUGGUUCUCUUUAGCACUGUCCACUUUGAAUGCCGAGUGUCAUAAGAAAUUUGGAAUUCUCGGGUGCCAA` — result for “RBNS enrichment (R)”: 0.509.
Under “RBNS enrichment (R)”, `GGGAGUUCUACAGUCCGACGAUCUUUCAUUUUGUAAAAUCUCAGUUAAUUUUUCUUUAUUGGUAUAUUUGUGUAUGCGAGACAAAUCCUGUAUUGUACAGGAUAUAAAUAGAUGCAUAAAUCCUUAGAUACCUUGGAAUUCUCGGGUGCCAA` is recorded as 0.928.
Under “RBNS enrichment (R)”, `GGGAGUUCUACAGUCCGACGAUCAAACAAAUUUAAAGGGCCUGUUAAUUCUUAUAUUUUUCUUUACUAAUCAUUUUGGAUUUUUUUCUUUGAAUUAUUGGCAGGGAAUAUACUUAUGUAUGGAAGAUUACUGCUGGAAUUCUCGGGUGCCAA` is recorded as 1.19.
Under “RBNS enrichment (R)”, `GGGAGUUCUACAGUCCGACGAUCUGGGUCUUGGGAGCUCUUGCCUUCACCUGUGGAUCCACUUAAGACAUUGUGGUCUGAAGCUCAGGCCACAGUGCCUGCCUCGUUCCCUCAGCCUCCCUCCCAGGGCUCCAUGGAAUUCUCGGGUGCCAA` is recorded as 0.401.
Under “RBNS enrichment (R)”, `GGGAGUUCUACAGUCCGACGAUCGGAGACAGCAAGCAAAGCCAGCAGGACAUGAAGUUGCUAUUAAAUGGACUUCGUGAUUUUUGUUUUGCACUAAAGUUUCUGUGAUUUAACAAUAAAAUUCUGUUAGCCAGUGGAAUUCUCGGGUGCCAA` is recorded as 0.565.

Sample 2
Target: Interferon regulatory factor 5, full length, phosphomimetic (IRF5, Homo sapiens, UniProt Q13568-2, residues 1-514, K96S/S451D/S453D/S456D/S462D)
Technique: protein-binding microarray
Molecule type: double-stranded DNA, one strand shown
Medium: in vitro
Concentration: 250 nM
Notes: 60-bp whole probe
Together with: salmon DNA 0.4 mg/ml
Baseline: random background probes
Reading: higher = stronger binding
Shared flanks, not repeated: GCCTAGCAC … GTCTTGATTCGCTTGACGCTGCTG
`GACGGTATCCTTTTCCTAACGTGCTAG` gave a log fluorescence of 0.504 z-score.
`TTAGGTTTCCTTTTCCTTAAGTGCTAG` has a log fluorescence of 1.96 z-score.
`TCAATTTTCTGAATGTCACTGTGCTAG` gave a log fluorescence of 1.18 z-score.
With `GACGGTTTTGGGTTTCGGGACGTGCTA` the log fluorescence was 2.82 z-score.
`GTGCCCGCTGCTTCCGGTGCGTGCTAG` gave a log fluorescence of 0.129 z-score.
`TTAGGTTTCGGTCTGGGTTAGTGCTAG` has a log fluorescence of 10.5 z-score.
`GACGGTACCCTACTGCTGACGTGCTAG` gave a log fluorescence of -0.326 z-score.
`GACGGGTTCGGGTTTCGGGACGTGCTA` has a log fluorescence of 1.44 z-score.
The log fluorescence of `GACGGTATCGGTCTCGGGAAGTGCTAG` is reported as 5.83 z-score.
For `TTAGATTTCGGGTATCAATTAGTGCTA`, the log fluorescence was 6.25 z-score.
`GTCGATCTCAGTTTCGAGACGTGCTAG` gave a log fluorescence of 5.63 z-score.
The log fluorescence of `TCAAATTTTCATTTTCCACTGTGCTAG` is reported as 2.19 z-score.
`GACGGACTGGGCCTGGGGACGTGCTAG` gave a log fluorescence of -0.857 z-score.
The log fluorescence of `TTAGGACAGGGTCTCGGTTAGTGCTAG` is reported as 0.00981 z-score.
`TTAGAAATGAGTATCGATTAGTGCTAG` has a log fluorescence of 7.23 z-score.
`TCATTCCTAATTCTCTTACTGTGCTAG` gave a log fluorescence of 0.618 z-score.
`TTAGGGCTCGGTATCGGTTAGTGCTAG` gave a log fluorescence of 4 z-score.
`TTAGGTTTCGGTCTCGATTAGTGCTAG` gave a log fluorescence of 10.3 z-score.

Sample 3
Target: Protein max, full length (MAX, Homo sapiens, UniProt P61244-2, residues 1-151)
Technique: protein-binding microarray
Molecule type: double-stranded DNA, one strand shown
Medium: in vitro
Concentration: not given
Notes: k-mer, scored over probes, only values ≥0.25
Reading: higher = stronger binding
With `CCACGCAG` the E-score was 0.289.
`CACGTGTA` gave an E-score of 0.496.
`CATGTTCC` gave an E-score of 0.34.
For `CACACACG`, the E-score was 0.363.
For `CATGCTCG`, the E-score was 0.403.
For `GTCATGCA`, the E-score was 0.3.
`ATGTGGGG` has an E-score of 0.307.
For `CAATGCGG`, the E-score was 0.29.
The E-score of `ACGTGTAA` is reported as 0.419.
With `ACGCGTCC` the E-score was 0.28.
The E-score of `AGCATATG` is reported as 0.331.
The E-score of `AATGTGCA` is reported as 0.28.
For `ATGTGCAG`, the E-score was 0.331.
The E-score of `ATATCACG` is reported as 0.309.
For `AAACGCAT`, the E-score was 0.292.
The E-score of `CATGAGTC` is reported as 0.303.
For `CGTGCACA`, the E-score was 0.379.
`ACGCGAGT` gave an E-score of 0.255.
For `ATGCGTGC`, the E-score was 0.403.
The E-score of `GTGCCGCA` is reported as 0.317.
The E-score of `GGTGTCAC` is reported as 0.287.
The E-score of `CAACGTGG` is reported as 0.462.
`GCCCCACC` has an E-score of 0.266.
`AACGTGCA` has an E-score of 0.434.
For `CCGCGAGG`, the E-score was 0.267.

Sample 4
Target: Ras GTPase-activating protein-binding protein 1, C-terminal RGG region (G3BP1, Homo sapiens, UniProt Q13283)
Chain of UniProt Q13283 (whole entry, looked up): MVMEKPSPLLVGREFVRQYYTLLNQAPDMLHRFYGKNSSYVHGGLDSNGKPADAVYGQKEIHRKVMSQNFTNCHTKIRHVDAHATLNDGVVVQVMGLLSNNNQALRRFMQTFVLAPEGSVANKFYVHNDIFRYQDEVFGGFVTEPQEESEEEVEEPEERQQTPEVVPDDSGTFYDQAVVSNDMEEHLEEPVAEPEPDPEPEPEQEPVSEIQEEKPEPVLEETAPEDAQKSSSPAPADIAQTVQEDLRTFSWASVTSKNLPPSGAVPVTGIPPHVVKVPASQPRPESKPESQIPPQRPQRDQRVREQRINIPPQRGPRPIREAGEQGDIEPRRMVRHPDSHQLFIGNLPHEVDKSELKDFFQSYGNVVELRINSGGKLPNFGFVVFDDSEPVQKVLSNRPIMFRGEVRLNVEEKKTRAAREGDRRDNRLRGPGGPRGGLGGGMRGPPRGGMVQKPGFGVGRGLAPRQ
Technique: RNA Bind-n-Seq
Molecule type: RNA
Medium: in vitro
Concentration: 1 µM
Notes: whole 134-nt RNA, ends assumed
Together with: 150 mM KCl
Baseline: input library
Reading: higher = stronger binding
`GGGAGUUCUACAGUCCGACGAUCGUCCUGUGCUACACAUCGUAUGUACCGAAUCGGGGAAAAAGGGGAGGGGUUUUUGGGGAAAGUAUUAUGUUACGCCGUUCGGAUCUGCACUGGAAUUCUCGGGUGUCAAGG` gave a log2 enrichment of 1.56.
With `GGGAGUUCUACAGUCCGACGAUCCUGUGCUACACAUCGUAUGUACCGAAUCGGAAAAAAAGGGAAAAAAAGGGGAAAAAAAGGGGAAAGUAUUAUGUUACGCCGUUCGGAUCUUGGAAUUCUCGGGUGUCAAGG` the log2 enrichment was -1.05.
The log2 enrichment of `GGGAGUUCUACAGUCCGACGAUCUGUGAGAUUAAACUUGCCCCCAAACGAUCUCGUUUGGAGACUAGAGCUGGAGAAGAAGAUGAAGGAGAAGAGGAUUCUGAUUCUGAUUAUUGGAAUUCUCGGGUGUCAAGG` is reported as -1.65.
For `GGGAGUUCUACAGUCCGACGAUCAGUCCUGUGCUACACAUCGUAUGUACCGAAUCGGGGAAAAAAAGGGGAGGGGAGGGGAAAGUAUUAUGUUACGCCGUUCGGAUCUGCACUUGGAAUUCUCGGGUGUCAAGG`, the log2 enrichment was 2.18.
The log2 enrichment of `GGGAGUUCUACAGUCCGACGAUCGUGCUACACAUCGUAUGUACCGAAUCGGGGCCCCCCCGGGGCCCCCCCGGGGCCCCCCCGGGGAAAGUAUUAUGUUACGCCGUUCGGAUCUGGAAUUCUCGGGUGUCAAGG` is reported as -2.85.
With `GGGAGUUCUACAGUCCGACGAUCGCAGGAAGUAAAAACAAAUGGAAAUGCUUCGGAUAGUGGCAGAAAUGGGGGUUGCUAAGGAAAGGGUGGGAUGGGAGUGGGUAAAGAGUUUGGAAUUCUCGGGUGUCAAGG` the log2 enrichment was 1.54.
With `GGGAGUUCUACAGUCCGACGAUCGCAGGAAGUAAAAACAAAUGGAAAUGCUUCGGAUAGUGGCAGGGGUGGGGGUUGCUAAGGAAAGGGUGGGAUGGGAGUGGGUAAAGAAAAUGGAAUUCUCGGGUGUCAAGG` the log2 enrichment was 2.12.
The log2 enrichment of `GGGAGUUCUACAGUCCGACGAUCUCAAGUCCUGUGCUACACAUCGUAUGUACCGAAUCGGGGUGGGGUGGGGUGGGGAAAGUAUUAUGUUACGCCGUUCGGAUCUGCACUUCCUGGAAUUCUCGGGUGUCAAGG` is reported as 2.14.
`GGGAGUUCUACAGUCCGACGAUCCUCAAGUCCUGUGCUACACAUCGUAUGUACCGAAUCGGAGGAAAAAAAGGUGGAAAGUAUUAUGUUACGCCGUUCGGAUCUGCACUUCCAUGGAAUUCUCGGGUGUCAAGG` gave a log2 enrichment of -1.32.
For `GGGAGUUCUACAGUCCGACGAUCCAAGUCCUGUGCUACACAUCGUAUGUACCGAAUCGGAAAGGAAAGGGGAAAGGGGAAAGUAUUAUGUUACGCCGUUCGGAUCUGCACUUCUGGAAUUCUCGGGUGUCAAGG`, the log2 enrichment was -1.02.
`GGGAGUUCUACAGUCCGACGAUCCAAGUCCUGUGCUACACAUCGUAUGUACCGAAUCGGGGCCCGGCCCGGCCCGGGGAAAGUAUUAUGUUACGCCGUUCGGAUCUGCACUUCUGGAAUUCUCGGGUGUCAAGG` has a log2 enrichment of -2.11.
`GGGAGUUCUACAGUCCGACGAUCUCCUGUGCUACACAUCGUAUGUACCGAAUCGGUUUUUUGGGUUUUUUGGGUUUUUUGGGAAAGUAUUAUGUUACGCCGUUCGGAUCUGCAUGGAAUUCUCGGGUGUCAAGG` has a log2 enrichment of -0.745.
`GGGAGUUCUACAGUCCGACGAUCCUGUGCUACACAUCGUAUGUACCGAAUCGGGGAAAAAAAGGGGUUUUUUUGGGGUUUGGGGAAAGUAUUAUGUUACGCCGUUCGGAUCUGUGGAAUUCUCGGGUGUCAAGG` has a log2 enrichment of -0.0274.
`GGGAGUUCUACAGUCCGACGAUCUGAUCUCCAGGAUGACAUGCGAAGAUGCCAAAUCAUCCGAGACAUGAUUGGACCGGAAAAGACUUUGGUAAAUAUCCUCUCACACCACUAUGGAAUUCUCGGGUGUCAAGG` has a log2 enrichment of -1.38.

For quick reference, copied from above (sample 3):
The E-score of `ATATCACG` is reported as 0.309.
For `AAACGCAT`, the E-score was 0.292.
The E-score of `CATGAGTC` is reported as 0.303.
For `CGTGCACA`, the E-score was 0.379.
